Assay results pooled from the literature.
Protocols differ between the studies behind these lines.
Route: oral

Structure (SMILES)	assay	test system	setting	endpoint	value
C[C@H]1O[C@@H](O[C@H]2[C@@H](O)C[C@H](O[C@H]3[C@@H](O)C[C@H](O[C@H]4CC[C@@]5(C)[C@H](CC[C@@H]6[C@@H]5C[C@@H](O)[C@]5(C)[C@@H](C7=CC(=O)OC7)CC[C@]65O)C4)O[C@@H]3C)O[C@@H]2C)C[C@H](O)[C@@H]1O	refers to: Somnolence	human	0.25 mg	participants with TEAE	3.4%
CCCS(=O)(=O)N[C@H]1C[C@@H](N(C)c2ncnc3[nH]ccc23)C1		healthy human	dose not given, with: dabigatran etexilate	participants with TRAEs	25%
COC(=O)N[C@H](C(=O)N1CCC[C@H]1c1ncc(-c2cc(F)c3c(c2)O[C@@H](c2cnc(C4CC4)s2)n2c-3cc3cc(-c4cnc([C@@H]5CCCN5C(=O)[C@@H](NC(=O)OC)C(C)C)[nH]4)ccc32)[nH]1)C(C)C		healthy adult humans	180 mg, 6 days	participants with Constipation	12.5%
CC(C)c1nc(N(C)S(C)(=O)=O)nc(-c2ccc(F)cc2)c1/C=C/[C@@H](O)C[C@@H](O)CC(=O)O		human	10 mg, alone	participants with TRAEs	0%
CC(C)c1nc(N(C)S(C)(=O)=O)nc(-c2ccc(F)cc2)c1/C=C/[C@@H](O)C[C@@H](O)CC(=O)O	refers to: Somnolence	human	10 mg	participants with TEAE	3.4%
CN1C(=O)[C@@H](NC(=O)c2nnc(Cc3ccccc3)[nH]2)COc2cccnc21	phase I single ascending dose	human, male and female	100 mg, fasted	participants with any AE of special interest	0%
CCn1c(=O)c(-c2cc(NC(=O)Nc3ccccc3)c(F)cc2Br)cc2cnc(NC)cc21	refers to: lipase increased	human, moderate hepatic impairment	50 mg single dose	participants with grade ≥ 3 TEAE	12.5%
CC(C)c1nc(CN(C)C(=O)N[C@@H](CCN2CCOCC2)C(=O)N[C@H](CC[C@H](Cc2ccccc2)NC(=O)OCc2cncs2)Cc2ccccc2)cs1		human	dose not given	participants with Urticaria	0%

Some of these lines once more:
Structure (SMILES)	assay	test system	setting	endpoint	value
C[C@H]1O[C@@H](O[C@H]2[C@@H](O)C[C@H](O[C@H]3[C@@H](O)C[C@H](O[C@H]4CC[C@@]5(C)[C@H](CC[C@@H]6[C@@H]5C[C@@H](O)[C@]5(C)[C@@H](C7=CC(=O)OC7)CC[C@]65O)C4)O[C@@H]3C)O[C@@H]2C)C[C@H](O)[C@@H]1O	refers to: Somnolence	human	0.25 mg	participants with TEAE	3.4%
